{"data": "Measurements collected from several papers", "note": "Compare with care: the assays were run in different laboratories. ± gives the spread as reported."}
{"Structure (SMILES)": "CCC[C@@](N)(CO)CCc1ccc(OCCCCCC(C)C)cc1", "system": "hound dogs, male", "setting": "oral, 10 mg/kg, capsule, fed state, median", "measurement": "Tmax", "value": "6 h"}
{"Structure (SMILES)": "O=C(Nc1ccccc1)C1CCN(C(=O)Oc2cccnc2)CC1", "system": "healthy women", "setting": "oral, 60 mg, 7 days", "measurement": "adverse event Dizziness", "value": "42.9%"}
{"Structure (SMILES)": "N=C(N)NCCC[C@@H](NC(=O)[C@@H](N)Cc1ccccc1)C(=O)N[C@@H](Cc1ccccc1)C(=O)N[C@@H](CCCCN)C(N)=O", "assay": "LC-MS", "system": "human", "setting": "15 mg, 11.83 h", "measurement": "mean amount excreted in urine", "value": "1.22e+06 ng"}
{"Structure (SMILES)": "C[C@@H]1NC(=O)[C@H](CCCCNC(=O)CO/N=C/C(=O)NCCCC[C@@H]2NC(=O)[C@@H](Cc3ccccc3)NC(=O)[C@H](CC(=O)O)NC(=O)CNC(=O)[C@H](CCCNC(=N)N)NC2=O)NC(=O)CNC(=O)[C@@H]2CCCN2C(=O)[C@H](CCCCNC(=O)CO/N=C/C(=O)NCCCC[C@@H]2NC(=O)[C@@H](Cc3ccccc3)NC(=O)[C@H](CC(=O)O)NC(=O)CNC(=O)[C@H](CCCNC(=N)N)NC2=O)NC(=O)[C@H](CCCCNC(=O)CCNC(=O)CCNC(=O)CCNC(=O)[C@H](CCCCN)NC(=O)[C@H](Cc2ccccc2)NC(=O)CNC(=O)CN2CCCNCCNCCCNCC2)NC(=O)[C@H](CCCCNC(=O)CO/N=C/C(=O)NCCCC[C@@H]2NC(=O)[C@@H](Cc3ccccc3)NC(=O)[C@H](CC(=O)O)NC(=O)CNC(=O)[C@H](CCCNC(=N)N)NC2=O)NC(=O)CNC(=O)[C@@H]2CCCN2C(=O)[C@H](CCCCNC(=O)CO/N=C/C(=O)NCCCC[C@@H]2NC(=O)[C@@H](Cc3ccccc3)NC(=O)[C@H](CC(=O)O)NC(=O)CNC(=O)[C@H](CCCNC(=N)N)NC2=O)NC1=O [copper-64 labelled]", "system": "normal mice, muscle", "setting": "intravenous, 0.74 MBq, 24 h post-injection", "measurement": "tissue uptake", "value": "0.26 ± 0.01 %ID/g"}
{"Structure (SMILES)": "O=C1Nc2cc3[nH]nc(-c4ccncc4)c3cc2CN1Cc1ccccc1", "assay": "CTCAE v4.03", "system": "advanced solid tumour patients", "setting": "intravenous, 0.9 mg/kg, schedules 1/2", "measurement": "patients with dyspnoea", "value": "0%"}
{"Structure (SMILES)": "C[C@@H]1OC(=O)NN=C1c1ccc(-c2ccc(F)cc2)c(C(F)(F)F)c1", "assay": "phase I trial, item: muscle spasms all grades", "system": "human patients", "setting": "10 mg loading then 0.5 mg daily", "measurement": "patients with adverse event", "value": "100%"}
{"Structure (SMILES)": "COC[C@@H](CC(C)C)NC(=O)c1ccc(C)c(C)c1", "system": "Hsd:ICR (CD-1) mouse, male, bone marrow", "setting": "oral, 1352 mg/kg, 48 h", "measurement": "PCE to total erythrocyte ratio", "value": 0.528}
{"Structure (SMILES)": "C[C@@H](NC(=O)N1C(=O)[C@H](Cc2ccnc(N)c2)[C@H]1C(=O)O)C1CCCCC1", "system": "healthy adult Chinese volunteers", "setting": "continuous intravenous infusion, 0.3 mg/kg/h, 5-day infusion, CTCAE 5.0 grading", "measurement": "incidence of urine erythrocyte positive", "value": "0%"}
{"Structure (SMILES)": "C[C@]1(CO)Cc2ncn(-c3ccc(C#N)c(Cl)c3)c2C(=O)O1", "system": "human", "setting": "10 mg multiple doses, fasted", "measurement": "subjects with any TEAE", "value": "11.1%"}
{"Structure (SMILES)": "COc1ccc2nc3cc(Cl)ccc3c(Nc3cc(CN4CCCC4)c(O)c(CN4CCCC4)c3)c2n1", "system": "mouse, blood", "setting": "intraperitoneal, 57 mg/kg", "measurement": "white blood cell count", "value": "7.66 10⁹/L"}
{"Structure (SMILES)": "O=[N+]([O-])c1ccc2c(c1)S(=O)(=O)C=C2", "system": "male C57BL/6 mice, blood", "setting": "intraperitoneal, 10 mg/kg, day 8, group average", "measurement": "platelet distribution width", "value": "14.8%"}
{"Structure (SMILES)": "CCc1nc(C(N)=O)c(Nc2ccc(N3CCC(N4CCN(C)CC4)CC3)c(OC)c2)nc1NC1CCOCC1", "system": "patients, plasma", "setting": "oral, 300 mg once daily, cycle 1 day 15, median", "measurement": "Cmin", "value": "1080 ng/mL"}
{"Structure (SMILES)": "CO[C@H]1C[C@@H]2CC[C@@H](C)[C@@](O)(O2)C(=O)C(=O)N2CCCC[C@H]2C(=O)O[C@H]([C@H](C)C[C@@H]2CC[C@@H](OC(=O)NCCOCCOCCOCCOCCOCCOCCOCCOCCC(=O)N3CCc4cc(Cn5nc(-c6ccc7oc(N)nc7c6)c6c(N)ncnc65)ccc4C3)[C@H](OC)C2)C[C@@H](O)[C@H](C)/C=C(\\C)[C@@H](O)[C@@H](OC)C(=O)[C@H](C)C[C@H](C)/C=C/C=C/C=C/1C", "assay": "dose-escalation trial", "system": "patients with advanced solid tumours", "setting": "intravenous, all doses weekly, any grade", "measurement": "treatment-related decreased appetite incidence", "value": "30%"}
{"Structure (SMILES)": "[18FH]", "system": "BALB/c mouse, small intestine", "setting": "intravenous, 1 h", "measurement": "tissue uptake", "value": "0.58 ± 0.3 %ID/g"}
{"Structure (SMILES)": "Cn1cc(-c2nc(N[C@@H]3CCCC[C@@H]3N)c(F)c3c2C(=O)NC3)cn1", "assay": "item: Gastric haemorrhage", "system": "patients with relapsed or refractory AML", "setting": "oral, dose not given, all doses", "measurement": "hemorrhagic adverse events", "value": "9%"}
{"Structure (SMILES)": "CCc1ccc(CC/C=C/c2ccc3c(c2)C(=O)CC3)cc1", "system": "Sprague-Dawley rat, male", "setting": "oral, 30 mg/kg/day, 14 days", "measurement": "Lymphocyte percentage", "value": "85.1%"}
{"Structure (SMILES)": "CC(C)C[C@H](NC(=O)[C@H](CC(C)C)NC(=O)[C@@H](N)[C@@H](C)O)C(=O)N[C@@H](CCCCN)C(=O)N[C@@H](CCCCN)C(=O)N[C@H](C(=O)N[C@@H](CC(C)C)C(=O)N[C@@H](CCCCN)C(=O)N[C@@H](C)C(=O)N[C@@H](C)C(=O)N[C@@H](C)C(=O)N[C@@H](CCCCN)C(=O)NCCCC[C@H](NC(=O)[C@H](CCCCN)NC(=O)[C@H](C)NC(=O)[C@H](C)NC(=O)[C@H](C)NC(=O)[C@H](CCCCN)NC(=O)[C@H](CC(C)C)NC(=O)[C@@H](NC(=O)[C@H](CCCCN)NC(=O)[C@H](CCCCN)NC(=O)[C@H](CC(C)C)NC(=O)[C@H](CC(C)C)NC(=O)[C@@H](N)[C@@H](C)O)C(C)C)C(=O)NCCCC[C@H](NC(=O)[C@H](CCCCNC(=O)[C@H](CCCCN)NC(=O)[C@H](C)NC(=O)[C@H](C)NC(=O)[C@H](C)NC(=O)[C@H](CCCCN)NC(=O)[C@H](CC(C)C)NC(=O)[C@@H](NC(=O)[C@H](CCCCN)NC(=O)[C@H](CCCCN)NC(=O)[C@H](CC(C)C)NC(=O)[C@H](CC(C)C)NC(=O)[C@@H](N)[C@@H](C)O)C(C)C)NC(=O)[C@H](CCCCN)NC(=O)[C@H](C)NC(=O)[C@H](C)NC(=O)[C@H](C)NC(=O)[C@H](CCCCN)NC(=O)[C@H](CC(C)C)NC(=O)[C@@H](NC(=O)[C@H](CCCCN)NC(=O)[C@H](CCCCN)NC(=O)[C@H](CC(C)C)NC(=O)[C@H](CC(C)C)NC(=O)[C@@H](N)[C@@H](C)O)C(C)C)C(=O)NCCC(=O)O)C(C)C", "system": "human red blood cells", "setting": "2 h, 37 °C", "measurement": "hemolytic concentration", "value": "5 µM"}
{"Structure (SMILES)": "O=S(=O)(Nc1ccccc1)c1ccc(NC(=S)Nc2ccccc2)cc1", "system": "mouse, male, blood", "setting": "oral, 5 mg/kg daily, 14 days", "measurement": "mean corpuscular haemoglobin", "value": "15 pg"}
{"Structure (SMILES)": "C[C@]1(O)C[C@@](N)(c2ccc(-c3nc4n(c3-c3ccccc3)COc3ccncc3-4)cc2)C1", "system": "human, advanced or metastatic solid tumours", "setting": "20 mg once daily, phase I dose escalation", "measurement": "patients with decreased appetite", "value": "33.3%"}
{"Structure (SMILES)": "CC(C)[C@@H]1NC(=O)CNC(=O)[C@H](CC(N)=O)NC(=O)[C@H](CCCNC(=N)N)NC(=O)[C@H](Cc2ccc(O)cc2)NC(=O)[C@H](C(C)C)NC(=O)[C@@H](NC(=O)[C@@H](NC(=O)[C@H](CC(N)=O)NC(=O)[C@H](Cc2c[nH]c3ccccc23)NC(=O)[C@H](C)NC(=O)[C@H](Cc2ccccc2)NC(=O)CN)C(C)C)CSSC[C@@H](C(=O)N[C@@H](Cc2cnc[nH]2)C(=O)N[C@@H](CCCNC(=N)N)C(=O)N[C@@H](CCCNC(=N)N)C(=O)N[C@@H](C)C(=O)N[C@@H](CC(N)=O)C(N)=O)NC(=O)[C@H](C(C)C)NC(=O)[C@H](CCCNC(=N)N)NC1=O", "system": "ICR mouse", "setting": "ip, 10 mg/kg", "how to read": "direction not given", "measurement": "tremor score", "value": 0}
{"Structure (SMILES)": "COc1cc2c(Oc3ccc4[nH]c(C)cc4c3F)ccnc2cc1OCC1(N)CC1", "system": "paediatric recurrent refractory sarcoma", "setting": "8 mg/kg", "measurement": "grade 1 or 2 Vomiting", "value": "33.3%"}
{"Structure (SMILES)": "CC(C)(O)c1cc(Nc2cc(Oc3cn(C4CC4)nc3C3CCOCC3)ccn2)ccn1", "assay": "item: Diarrhea", "system": "Japanese patients with advanced cancer", "setting": "oral, dose not given, any grade", "measurement": "treatment-emergent adverse events", "value": "0%"}
{"Structure (SMILES)": "Nc1ncc(-c2nc(N3CCOCC3)nc(N3CCOCC3)n2)c(C(F)F)n1", "assay": "shake flask", "system": "buffer", "setting": "24 h, pH 6.8, 25 °C", "measurement": "thermodynamic solubility", "value": "3.75 µM"}
{"Structure (SMILES)": "CCN1[C@@H](C(=O)NC23CCC(C(=O)O)(CC2)CC3)[C@H](c2cccc(Cl)c2F)[C@]2(C(=O)Nc3cc(Cl)ccc32)C12CCCCC2", "system": "patients with advanced solid tumours", "setting": "100 mg", "measurement": "oral mucositis incidence", "value": "9.1%"}
